Experimental data of several laboratories.
Lines come from different studies, so protocols differ. Values joined by “and” are separate records of one study, mostly repeats; a detail may differ. ± gives the spread as reported.
GBA2: Beta-glucosidase (GBA2, Homo sapiens, UniProt Q9HCG7)
Chain of UniProt Q9HCG7 (whole entry, looked up): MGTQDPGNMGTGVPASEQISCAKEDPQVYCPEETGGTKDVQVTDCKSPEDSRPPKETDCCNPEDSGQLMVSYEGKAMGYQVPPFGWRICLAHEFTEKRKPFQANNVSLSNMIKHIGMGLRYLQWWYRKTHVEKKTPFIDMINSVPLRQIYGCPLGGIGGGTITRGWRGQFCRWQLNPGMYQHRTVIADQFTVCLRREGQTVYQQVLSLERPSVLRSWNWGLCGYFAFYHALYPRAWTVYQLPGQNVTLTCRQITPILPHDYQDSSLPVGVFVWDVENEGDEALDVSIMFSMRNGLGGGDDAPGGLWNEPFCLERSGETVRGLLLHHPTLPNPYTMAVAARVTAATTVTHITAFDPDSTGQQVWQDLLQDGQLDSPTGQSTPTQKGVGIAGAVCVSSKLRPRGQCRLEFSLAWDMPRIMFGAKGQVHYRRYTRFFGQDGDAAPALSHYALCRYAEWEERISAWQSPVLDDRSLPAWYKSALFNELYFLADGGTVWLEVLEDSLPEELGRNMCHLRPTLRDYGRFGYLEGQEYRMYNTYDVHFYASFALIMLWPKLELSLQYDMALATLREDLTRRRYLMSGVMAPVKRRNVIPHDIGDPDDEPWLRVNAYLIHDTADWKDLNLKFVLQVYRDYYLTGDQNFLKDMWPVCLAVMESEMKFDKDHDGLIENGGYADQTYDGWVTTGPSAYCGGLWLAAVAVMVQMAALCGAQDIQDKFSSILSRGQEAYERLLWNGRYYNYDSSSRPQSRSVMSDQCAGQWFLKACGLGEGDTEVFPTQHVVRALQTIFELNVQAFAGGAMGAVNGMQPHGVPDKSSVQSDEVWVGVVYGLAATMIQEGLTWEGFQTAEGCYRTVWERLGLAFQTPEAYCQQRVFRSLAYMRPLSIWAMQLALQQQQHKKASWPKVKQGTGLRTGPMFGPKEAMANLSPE

| SMILES | target or system | test | test system | setting | scale | endpoint | value |
| --- | --- | --- | --- | --- | --- | --- | --- |
| COC1CN([C@H]2CC[C@H]([C@@]3(C)Oc4c(Cl)cc(C(=O)NCc5c(SC)cc(C)[nH]c5=O)c(C)c4O3)CC2)C1 |  | RNA-seq, measured: P2RY14 | human, whole blood | dose not given, 24 h | baseline: pretreatment baseline | log2 fold change | 1.64 |
| CN1CCCNC(=O)c2cccc(c2)C(=O)NCCCN(C)CCCNc2cccc3c2C(=O)c2cccc(c2C3=O)NCCC1 | SAS | RNA-Seq, measured: AMN1 mRNA |  | 1 µM, 6 h | baseline: untreated cells | log2 fold change | -2.65 |
| OC[C@H]1N[C@H](CCCCCOCC23CC4CC(CC(C4)C2)C3)[C@H](O)[C@@H](O)[C@@H]1O | GBA2 | inhibitor, 4MU-β-D-glucopyranoside | HEK293T homogenates overexpressing GBA2 |  | baseline: GCS IC50 over GBA2 IC50 | selectivity ratio | 167 |
| CCN(C(=O)c1cc(F)ccc1Oc1nncnc1N1CCC2(C1)CN([C@H](CCCN(C)CCOC)C(C)C)C2)C(C)C | DU-145 | cell growth or viability |  | 7 days |  | GI50 | > 10 µM |
| Cc1ncsc1-c1ccc(C(C)NC(=O)C2CC(O)CN2C(=O)C(NC(=O)CCCCCCCCCCN2CCCC(Nc3ncc(Cl)c(Nc4ccccc4S(=O)(=O)C(C)C)n3)C2)C(C)(C)C)cc1 (stereo not drawn) | 22Rv1 | RNA-seq, measured: RBM23 mRNA |  | concentration not given | baseline: DMSO | log2 fold change | -1.09 |
| Cn1ncc2cc(-c3cncc(Cl)c3N3CCC4(CCNC4=O)CC3)ccc21 | LS174T | gene expression, microarray, measured: IGLL1 mRNA |  | concentration not given, 24 h | baseline: untreated cells | log2 fold change | 2.01 |
| OC[C@H]1[C@@H](O)[C@H](O)[C@@H](O)CN1CCCCCOCc1ccc(-c2ccccc2)c(C(F)(F)F)c1 | GBA2 | inhibitor, 4MU-β-D-glucopyranoside | HEK293T homogenates overexpressing GBA2 |  | baseline: GCS IC50 over GBA2 IC50 | selectivity ratio | 30 |
| C[n+]1ccc(/C=N/NC(=O)c2cc(C(=O)N/N=C/c3cc[n+](C)c4ccccc34)ncn2)c2ccccc21 | myc22 MYC G4-DNA parallel | FRET melting |  | 1 µM, K1 buffer, DNA 0.2 µM |  | ΔTm | 3.2 ± 0.2 °C |
| COc1ccccc1-c1ccncc1C(=O)Nc1nnc(OCc2ccc(Cl)cc2)s1 | MDA-MB-231 |  |  | 1.5 µM, single replicate | baseline: untreated | colony survival | 85.2% and 101% |
| CC(C)c1ccc(N(C)c2ccc3c(c2)OCC[C@H]3CNc2cnccc2C(=O)O)cc1 | Malme-3M | cell viability, CellTiter-Glo |  | 7 days |  | IC50 | ≥ 10 µM |
| CCN(CC)CC(=O)Nc1cccc(-n2cc(-c3ccc4ccc(-c5cn(-c6cccc(NC(=O)CN(CC)CC)c6)nn5)cc4c3)nn2)c1 | RCC4 | PCR angiogenesis array, measured: FIGF |  | 5 x IC50, 6 h, normoxia | baseline: untreated | fold regulation | 2.66 |
| CNS(=O)(=O)Nc1nccc(Cc2c(C)c3ccc(Oc4ncccc4F)cc3oc2=O)c1F | NCI-H596 | cell viability |  | 7 days |  | IC50 | 0.843 µM |

Some of these lines once more:
| SMILES | target or system | test | test system | setting | scale | endpoint | value |
| --- | --- | --- | --- | --- | --- | --- | --- |
| C[n+]1ccc(/C=N/NC(=O)c2cc(C(=O)N/N=C/c3cc[n+](C)c4ccccc34)ncn2)c2ccccc21 | myc22 MYC G4-DNA parallel | FRET melting |  | 1 µM, K1 buffer, DNA 0.2 µM |  | ΔTm | 3.2 ± 0.2 °C |
